Results from different studies.
Compare with care: the assays were run in different laboratories.
Organism: Pseudomonas aeruginosa

The MIC of `COc1ccc2ccc3c(c2c1)C=[N+]1C2CCCCC2[N+]2=Cc4cccc(F)c4[O][Au-]21[O]3.F[P-](F)(F)(F)(F)F` (stereo not drawn) is reported as greater than 20 µM (bacterial growth, broth microdilution; carbapenem-resistant clinical isolate; 24 h).
For `NCC1OC(OC2C(N)CC(N)C(OC3OC(CO)C(O)C(N)C3O)C2OCCCCCCCCCCCCn2cc(CNc3nc(NCc4cn(CCCCCCCCCCCCOC5C(OC6OC(CN)C(O)CC6N)C(N)CC(N)C5OC5OC(CO)C(O)C(N)C5O)nn4)nc(NCc4cn(CCCCCCCCCCCCOC5C(OC6OC(CN)C(O)CC6N)C(N)CC(N)C5OC5OC(CO)C(O)C(N)C5O)nn4)n3)nn2)C(N)CC1O` (stereo not drawn), the MIC was 32 µg/mL (PAO1, CAMHB).
`c1ccc(CN2CCOCCOCCN(CCCCCCCCCCN3CCOCCOCCN(CCCCCCCCCCN4CCOCCOCCN(Cc5ccccc5)CCOCCOCC4)CCOCCOCC3)CCOCCOCC2)cc1` has an MIC of greater than 100 µM (microbial growth).
The MIC of `CO[C@@H](C(N)=O)[C@H](NC(=O)c1ccc(NC(=O)c2ccc([N+](=O)[O-])cc2)cc1)C(=O)Nc1ccc(C(=O)Nc2ccc(C(=O)Nc3ccc(C(=O)O)cc3)c(O)c2OC(C)C)cc1` is reported as 2 µg/mL (DSM 46316 ESBL 2).
For `CC(C)C[C@H](NC(=O)[C@H](CC(N)=O)NC(=O)[C@H](CCCNC(=N)N)NC(=O)[C@@H](CC(C)C)NC(=O)[C@H](Cc1ccccc1)NC(=O)[C@H](CC(=O)O)NC(=O)[C@H](CCCCN)NC(=O)[C@@H](CC(C)C)NC(=O)[C@H](CCCNC(=N)N)NC(=O)[C@H](CCC(N)=O)NC(=O)[C@@H](NC(=O)[C@@H](CC(C)C)NC(=O)[C@H](CCCNC(=N)N)NC(=O)[C@H](CCCCN)NC(=O)[C@H](Cc1ccc(-c2ccccc2)cc1)NC(=O)CN)C(C)C)C(=O)N[C@H](C(N)=O)C(C)C`, the MIC was 12.5 µM (broth microdilution; PAO1).
The MIC of `FC(F)(F)c1cc(CSc2nnc(C34CC5CC(CC(C5)C3)C4)n2-c2ccccc2)cc(C(F)(F)F)c1` is reported as 8 µg/mL (two-fold dilution; IFO 3448; 24 h, 36 °C).
`CN1/C(=C/C=C/c2cc(-c3ccccc3)cc(-c3ccccc3)[o+]2)C(C)(C)c2ccccc21` has an MIC of no less than 64 µg/mL (microbial growth, broth dilution; ATCC27853).
`CC[C@@H](C)[C@@H](NC(=O)[C@@H](C)NC(=O)[C@@H](CCCCN)NC(=O)[C@@H](CC(C)C)NC(=O)[C@@H](C)NC(=O)[C@H](NC(=O)[C@@H](CCCCN)NC(=O)[C@@H](CC(C)C)NC(=O)[C@H](NC(=O)[C@@H](CCCCN)NC(=O)[C@@H](CCCCN)NC(=O)[C@@H](CCCCN)NC(=O)[C@@H](C)NC(=O)[C@@H](CCCCN)NC(=O)[C@@H](CO)NC(=O)[C@@H](Cc1ccccc1)NC(=O)[C@H](NC(=O)[C@@H](CCCCN)NC(=O)[C@@H](CC(C)C)NC(=O)[C@@H](Cc1ccccc1)NC(=O)[C@@H](CO)NC(=O)[C@@H](CCCCN)NC(=O)[C@@H](Cc1c[nH]c2ccccc12)NC(=O)[C@@H](CCCCN)NC(C)=O)[C@H](C)O)C(C)C)[C@H](C)O)C(=O)N[C@H](CO)C(=O)N[C@H](CCCCN)C(N)=O` has an MIC of 1.3 µM (broth microdilution; M2; 24 h, 37 °C).
The MIC of `COc1ccc(-c2ccn(CC[C@](C)(C(=O)NO)S(C)(=O)=O)c(=O)c2)c(F)c1` is reported as 0.25 µg/mL (PA-1950).
With `COc1ccc2ccc3c(c2c1)C=[N+]1C2CCCCC2[N+]2=Cc4ccccc4[O][Au-]21[O]3.F[P-](F)(F)(F)(F)F` (stereo not drawn) the MIC was 20 µM (bacterial growth, broth microdilution; carbapenem-resistant; 24 h).
For `CC[P+](CC)(CC)[Au-][S][C@@H]1O[C@H](COC(C)=O)[C@@H](OC(C)=O)[C@H](OC(C)=O)[C@H]1NC(=O)C(Cl)(Cl)Cl`, the MIC was greater than 328 µM (NCTC 13437).
For `CC(C)c1ccc2c(c1)CCC1C(C)(CN(CC(O)C[N+](C)(C)C)CC(O)C[N+](C)(C)C)CCCC21C` (stereo not drawn), the MIC was greater than 250 µg/mL (microbial growth, broth dilution; ATCC27853; 16 h).
The MIC of `CCn1cc(C(=O)NCCNCCO)c(=O)c2cc(OC)c(OCc3cccc(F)c3)cc21` is reported as less than 0.25 µg/mL (ATCC 27853; ≥80% growth inhibition).
`CC(=O)N[C@H](CCCCN)C(=O)N[C@H](CC(C)C)C(=O)N[C@H](CCCCN)C(=O)N[C@H](CO)C(=O)N[C@H](CC(C)C)C(=O)N[C@H](CC(C)C)C(=O)N[C@H](CCCCN)C(=O)N[C@@H](C(=O)N[C@H](CC(C)C)C(=O)N[C@H](CO)C(=O)N[C@H](CCCCN)C(=O)N[C@H](C)C(=O)N[C@H](CCCCN)C(=O)N[C@H](CCCCN)C(=O)N[C@H](CCCCN)C(=O)N[C@H](CCCCN)C(=O)N[C@H](CC(C)C)C(=O)N[C@H](CCCCN)C(=O)N[C@@H](C(=O)N[C@H](CC(C)C)C(=O)N[C@H](CC(C)C)C(=O)N[C@H](CCCCN)C(=O)N[C@H](C)C(=O)N[C@H](CC(C)C)C(=O)N[C@H](CO)C(=O)N[C@H](CCCCN)C(N)=O)[C@H](C)O)[C@H](C)O` has an MIC of 2.6 µM (broth microdilution; PAK; 24 h, 37 °C).
`Cc1cc(O)cc2c1C(=O)c1c(cc3oc(=O)cc(-c4ccc(Cl)cc4)c3c1O)C2=O` gave an MIC of 64 µg/mL (microbial growth).
For `CC(C)=CCc1cc2c(cc1O)OCc1c-2oc2c(CC=C(C)C)c(O)ccc12`, the MIC was 128 µg/mL (ATCC 10145).
For `CC[C@@H](C)[C@@H](NC(=O)[C@@H](C)NC(=O)[C@@H](CCCCN)NC(=O)[C@@H](CC(C)C)NC(=O)[C@@H](CC(C)C)NC(=O)[C@H](NC(=O)[C@@H](CCCCN)NC(=O)[C@@H](CC(C)C)NC(=O)[C@@H](C)NC(=O)[C@@H](CCCCN)NC(=O)[C@@H](CCCCN)NC(=O)[C@@H](CCCCN)NC(=O)[C@@H](C)NC(=O)[C@@H](CCCCN)NC(=O)[C@@H](CO)NC(=O)[C@@H](Cc1ccccc1)NC(=O)[C@H](NC(=O)[C@@H](CCCCN)NC(=O)[C@@H](CC(C)C)NC(=O)[C@@H](Cc1ccccc1)NC(=O)[C@@H](CO)NC(=O)[C@@H](CCCCN)NC(=O)[C@@H](Cc1c[nH]c2ccccc12)NC(=O)[C@@H](CCCCN)NC(C)=O)[C@H](C)O)[C@H](C)O)C(=O)N[C@H](CO)C(=O)N[C@H](CCCCN)C(N)=O`, the MIC was 5.1 µM (broth microdilution; M2; 24 h, 37 °C).
The MIC of `COc1ccc2c(c1)[O][Au-]13[O]c4ccc5ccc(OC)cc5c4C=[N+]1C1CCCCC1[N+]3=C2.F[P-](F)(F)(F)(F)F` (stereo not drawn) is reported as greater than 20 µM (bacterial growth, broth microdilution; carbapenem-resistant; 24 h).
